{"data": "Measurements collected from several papers", "note": "Protocols differ between the studies behind these lines. Several values in a cell are separate wells, animals, samples, runs or records. ± marks the error that the study gave."}
{"Structure (SMILES)": "O=C(Nc1cnccc1Cl)N1CCN(Cc2ccc3c(c2)OC(F)(F)O3)CC1", "assay": "measured: Headache", "test system": "human healthy young men", "conditions": "10 mg, multiple dose", "endpoint": "adverse event incidence", "value": "0%"}
{"Structure (SMILES)": "CCO[C@H]1CCN(Cc2c(OC)cc(C)c3[nH]ccc23)[C@H](c2ccc(C(=O)O)cc2)C1", "test system": "human mild hepatic impairment, plasma", "conditions": "oral, 200 mg single dose, geometric mean", "endpoint": "total Cmax", "value": "3560 ng/mL"}
{"Structure (SMILES)": "CCOc1c([C@H](C)n2nc(C)c3c(N)ncnc32)cc(Cl)c(F)c1[C@@H]1CNC(=O)C1", "assay": "measured: QTcF ≤450 ms", "test system": "previously treated B-cell malignancy", "conditions": "oral, 15 mg once daily, baseline QTcF ≤450 ms", "endpoint": "patients", "value": "100%"}
{"Structure (SMILES)": "CCC[C@H](C)[C@H]1CN(C(=O)OCC)C[C@@H](c2cccc(Br)c2)N1", "assay": "shake-flask, LC-HRMS", "test system": "aqueous buffer", "conditions": "16 h, pH 6.8", "endpoint": "solubility", "value": "< 4 µM"}
{"Structure (SMILES)": "CC/C(=C(\\c1ccccc1)c1ccc(OCCN(C)C)cc1)c1ccccc1", "test system": "immature female Sprague-Dawley rat", "conditions": "oral, dose not given, 4 days once daily, uterotrophic", "how to read": "baseline: vehicle", "endpoint": "uterine weight", "value": "increased"}
{"Structure (SMILES)": "COc1ncc(-c2nc3c(n2C(C)C)[C@H](c2ccc(Cl)cc2)N(c2cc(Cl)cn(C)c2=O)C3=O)c(OC)n1", "assay": "LC-MS/MS", "test system": "human, plasma", "conditions": "oral, 15 mg, cycle 1 day 8, low-dose arm", "endpoint": "AUC(0-last)", "value": "783 ng·h/mL"}
{"Structure (SMILES)": "C[C@@H](Oc1ccc(S(C)(=O)=O)cc1C(=O)N1C[C@@H]2C[C@]2(c2cc(C(F)(F)F)on2)C1)C(F)(F)F", "test system": "young humans, plasma", "conditions": "oral, 75 mg once daily, multiple dose, geometric mean", "endpoint": "half-life at steady state", "value": "2300 min"}
{"Structure (SMILES)": "O=C(O)CCC(=O)O.[2H]C([2H])([2H])Oc1cc(C)c2[nH]ccc2c1CN1CC[C@@H](C2CC2)C[C@H]1c1ccc(C(=O)O)cc1", "assay": "multiple ascending dose", "test system": "healthy Chinese subjects", "conditions": "125 mg twice daily", "endpoint": "subjects with increased creatinine TEAE", "value": "12.5%"}
{"Structure (SMILES)": "CC/C=C\\C/C=C\\C/C=C\\C/C=C\\C/C=C\\C/C=C\\CCC(=O)O.Cc1cc(/C=C/C#N)cc(C)c1Nc1ccnc(Nc2ccc(C#N)cc2)n1", "test system": "aqueous buffer", "conditions": "pH 1.2", "endpoint": "equilibrium solubility", "value": "67.95 ± 0.41 µg/mL"}
{"Structure (SMILES)": "COc1cc(C(=O)N2CCC3(CC2)CC(=O)c2c(cnn2C(C)C)C3)cc(-c2ccc(C(=O)O)cc2)n1", "test system": "human, fasting serum", "conditions": "40 mg once daily, day 13, adjusted geometric mean", "endpoint": "HDL cholesterol change from baseline", "value": "-11.2%"}
{"Structure (SMILES)": "CCCC1CCC(C2CCC(c3cc(F)c(F)c(F)c3)CC2)CC1 (stereo not drawn)", "test system": "rat, placenta", "conditions": "5000 ng/mL in perfusate, high dose, mixture of 21 LCMs", "endpoint": "placental accumulation", "value": "262 ± 373 ng/g"}
{"Structure (SMILES)": "C[C@H]1CN(C(=O)CC#N)[C@]12CCN(c1ncnc3[nH]ccc13)C2", "test system": "healthy adults, plasma", "conditions": "oral, 6 mg single dose", "endpoint": "Tmax, median or range", "value": "48 min"}
{"Structure (SMILES)": "CCOC(=O)N1C[C@@H](c2ccc(F)c(C#N)c2)N[C@@H](c2ccc(-c3ccccc3)cc2)C1", "assay": "shake-flask, LC-HRMS", "test system": "aqueous buffer", "conditions": "16 h, pH 6.8", "endpoint": "solubility", "value": "< 4 µM"}
{"Structure (SMILES)": "CCN1/C(=C/C(C)=O)Sc2ccc(F)cc21", "test system": "cynomolgus monkey", "conditions": "oral, 10 mg/kg, 0.5 h post-dose", "endpoint": "QT interval", "value": "227 ± 10 ms"}
{"Structure (SMILES)": "C=CC(=O)Nc1cc(Nc2nccc(-c3cn(C4CC4)c4ccccc34)n2)c(OC)cc1N(C)CCN(C)C", "test system": "BALB/c nude mouse, LU0387 xenograft, blood", "conditions": "oral, 40 mg/kg", "endpoint": "MONO percentage", "value": "6.28 ± 0.296%"}
{"Structure (SMILES)": "CCC(=O)O[C@]1(C(=O)SCF)[C@H](C)C[C@H]2[C@@H]3C[C@H](F)C4=CC(=O)C=C[C@]4(C)[C@@]3(F)[C@@H](O)C[C@@]21C", "assay": "three-compartment model", "test system": "rat, plasma", "conditions": "intravenous, 90 nmol/kg", "endpoint": "central volume of distribution", "value": "0.63 ± 0.16 L/kg"}
{"Structure (SMILES)": "Cc1cc([C@H]2C[C@H]3[C@@H](C)SC(N)=N[C@@]3(c3ccc(F)cc3F)CO2)on1", "test system": "male 129/SVE mouse, CSF", "conditions": "subcutaneous, 50 mg/kg, 7 h", "endpoint": "CSF concentration", "value": "19 nM"}
{"Structure (SMILES)": "CN1CCN(c2cccc3c2CCN(C(=O)/C=C/c2c(-n4cnnn4)ccc(Cl)c2F)[C@@H]3C(=O)Nc2ccc(C(=O)O)cc2)C(=O)C1", "test system": "healthy human subjects", "conditions": "intravenous infusion, 10 mg/h, 2 h", "endpoint": "discontinuations due to adverse events", "value": "0%"}
{"Structure (SMILES)": "Fc1ccc([C@@H]2COC[C@H](c3ccc(-c4ccccc4)cc3)N2)cc1", "assay": "shake-flask, LC-HRMS", "test system": "aqueous buffer", "conditions": "16 h, pH 6.8", "endpoint": "solubility", "value": "< 4 µM"}
{"Structure (SMILES)": "Cc1ncnc2c1ccn2[C@@H]1C[C@H](Oc2cc(C(F)F)c(F)c3c2CNCC3)[C@@H](O)[C@H]1O", "test system": "human", "conditions": "oral, 0.5 mg twice daily", "endpoint": "Cmin", "value": "2.54 ng/mL"}
{"Structure (SMILES)": "C[C@H](CCC(=O)NCCS(=O)(=O)O)[C@H]1CC[C@H]2[C@@H]3CC[C@@H]4C[C@H](O)CC[C@]4(C)[C@H]3C[C@H](O)[C@]12C", "test system": "human, plasma", "conditions": "endogenous baseline diurnal", "endpoint": "Cmin", "value": "5.18 ± 1.58 nM"}
{"Structure (SMILES)": "Cc1cc(Nc2ncnc3ccc(NC4=NC(C)(C)CO4)cc23)ccc1Oc1ccn2ncnc2c1", "assay": "measured: Arthralgia", "test system": "healthy volunteers", "conditions": "oral, dose not given, grade 1-2", "endpoint": "drug-related adverse events", "value": "3.6%"}
{"Structure (SMILES)": "CC(C(=O)NCC(=O)NCC(CNC(=O)CNC(=O)C(C)N1CCN(CC(=O)[O-])CCN(CC(=O)[O-])CCN(CC(=O)[O-])CC1)(CNC(=O)CNC(=O)C(C)N1CCN(CC(=O)[O-])CCN(CC(=O)[O-])CCN(CC(=O)[O-])CC1)CNC(=O)CNC(=O)C(C)N1CCN(CC(=O)[O-])CCN(CC(=O)[O-])CCN(CC(=O)[O-])CC1)N1CCN(CC(=O)[O-])CCN(CC(=O)[O-])CCN(CC(=O)[O-])CC1.[Gd+3].[Gd+3].[Gd+3].[Gd+3] (stereo not drawn)", "assay": "ICP-MS", "test system": "cynomolgus monkey, feces", "conditions": "1 days post-injection", "how to read": "baseline: dose", "endpoint": "cumulative fecal excretion", "value": "0.04%"}
{"Structure (SMILES)": "CNC(=O)c1ccc(-c2cnc3ncc(Cc4ccc5ncccc5c4)n3n2)cc1F", "assay": "measured: Nausea", "test system": "hepatocellular carcinoma patients", "conditions": "oral, 600 mg twice daily, expansion cohort, grade 3-4", "endpoint": "patients with adverse event", "value": "9%"}
{"Structure (SMILES)": "CCOC(=O)N1C[C@@H](c2ccc(C(=O)OC)cc2)N[C@@H](c2cnc(-c3ccccc3)nc2)C1", "assay": "shake-flask, LC-HRMS", "test system": "aqueous buffer", "conditions": "16 h, pH 6.8", "endpoint": "solubility", "value": "< 4 µM"}
{"Structure (SMILES)": "COC(=O)c1ccc(NC(=O)CSc2nnnn2-c2ccccc2OC)cc1", "test system": "aqueous buffer", "conditions": "pH 7.4", "endpoint": "solubility", "value": "< 2.85 µg/mL"}
{"Structure (SMILES)": "CCC[C@H]1CC[C@H](c2ccc(C#N)cc2)CC1", "test system": "Sprague-Dawley rat, female, placenta", "conditions": "10 ng/mL in perfusate, 50 (unit not given), low dose, mixture of 21 LCMs", "endpoint": "placental accumulation", "value": "85.1 ± 19 ng/g"}
{"Structure (SMILES)": "CC(C)(C(=O)N1CCOc2c(C#N)cncc2C1)C(F)F", "assay": "measured: infections and infestations", "test system": "human", "conditions": "oral, 10 mg once daily, 14 days, multiple ascending dose", "endpoint": "subjects with adverse event", "value": "0%"}
{"Structure (SMILES)": "C[C@@H](Nc1cc(F)cc(F)c1)c1cc(C(=O)N(C)C)cc2c(=O)cc(N3CCOCC3)oc12", "assay": "measured: Hematuria", "test system": "advanced solid tumour patients", "conditions": "oral, dose not given, dose expansion", "endpoint": "patients discontinuing for AE", "value": "0%"}
{"Structure (SMILES)": "O=c1[nH]c(=O)n([C@@H]2O[C@H](CO)[C@@H](O)[C@@H]2F)cc1CCC[18F]", "test system": "nude mice, RG2 tumour, muscle", "conditions": "intravenous, dose not given, 2 h", "endpoint": "biodistribution", "value": "0.29 ± 0.14 %ID/g"}
{"Structure (SMILES)": "Cc1c(C(=O)O)ccc2c3n(nc12)[C@@H]1[C@H](C3)N(CC2CC2)[C@@]2(C(=O)Nc3cc(Cl)ccc32)[C@H]1c1cccc(Cl)c1F", "test system": "female BALB/c nude mice, plasma", "conditions": "oral, 1 mg/kg twice daily, 24 h, SJSA-1 tumour-bearing", "endpoint": "plasma concentration", "value": "707 nmol/L and 729 nmol/L and 445 nmol/L and 715 nmol/L and 1060 nmol/L"}
{"Structure (SMILES)": "COc1ccc(-n2c(SCC(N)=O)nnc2-c2cccs2)cc1", "test system": "aqueous buffer", "conditions": "pH 7.4", "endpoint": "solubility", "value": "16.4 µg/mL"}
{"Structure (SMILES)": "CCN1CCN(Cc2ccc(NC(=O)c3ccc(C)c(NC(=O)c4cncc(-c5cccs5)c4)c3)cc2C(F)(F)F)CC1", "test system": "C57BL/6 mice, epithelial lining fluid", "conditions": "intraperitoneal, 10 mg/kg", "endpoint": "apparent clearance", "value": "37.1 mL/min/kg"}
{"Structure (SMILES)": "CC(C)n1c(Nc2cccnc2)nc2cnc(Nc3ccc(N4CCN(C)CC4)cc3)nc21", "assay": "measured: sinus bradycardia", "test system": "healthy male subjects", "conditions": "oral, 100 mg, study, together with: itraconazole", "endpoint": "subjects with adverse event", "value": "0%"}
{"Structure (SMILES)": "Clc1ccc([C@@H]2COC[C@H](c3cc(Cl)cc(Cl)c3)N2)cc1", "assay": "shake-flask, LC-HRMS", "test system": "aqueous buffer", "conditions": "16 h, pH 6.8", "endpoint": "solubility", "value": "< 4 µM"}
{"Structure (SMILES)": "NC(=O)N1c2ccccc2C=Cc2ccccc21", "assay": "measured: dry mouth", "test system": "human male", "conditions": "oral, dose not given, AEs, treatment-related, on drug, CTCAE", "endpoint": "adverse events incidence", "value": "0%"}
{"Structure (SMILES)": "COc1ccc(NC(=O)CN2CCOCC2)c([N+](=O)[O-])c1", "test system": "aqueous buffer", "conditions": "pH 7.4", "endpoint": "solubility", "value": "46.5 µg/mL"}
{"Structure (SMILES)": "CC(=O)N(C)[C@H]1CCN(C(=O)c2cnc3c(c2)C[C@](C)(c2ccc(F)cc2)N3)C1", "test system": "healthy male subjects, multiple rising dose", "conditions": "oral, 15 mg once daily", "endpoint": "drug-related adverse events", "value": "12.5%"}
{"Structure (SMILES)": "NC[C@@H]1O[C@H](O[C@H]2[C@@H](O)[C@H](O[C@@H]3[C@@H](O)[C@H](N)C[C@H](N)[C@H]3O[C@H]3O[C@H](CO)[C@@H](O)[C@H](O)[C@H]3N)O[C@@H]2CO)[C@H](N)[C@@H](O)[C@@H]1O", "test system": "NSG mice", "conditions": "dose not given, day 10 of treatment", "endpoint": "body weight", "value": "24.4 g and 24.6 g and 23.2 g and 23.6 g"}
{"Structure (SMILES)": "N#Cc1ccc2c(c1)[C@H]1CCCN(C(=O)c3ccc4[nH]cnc4c3)[C@H]1C2", "test system": "human females", "conditions": "360 mg, end of trial", "endpoint": "total testosterone", "value": "0.8 nmol/L"}
{"Structure (SMILES)": "CC1(C)OC[C@H](c2ccc3ccccc3c2)N[C@@H]1c1ccccc1", "assay": "shake-flask, LC-HRMS", "test system": "aqueous buffer", "conditions": "16 h, pH 6.8", "endpoint": "solubility", "value": "< 4 µM"}
{"Structure (SMILES)": "CN(C)C(=N)N=C(N)N", "assay": "measured: gastrointestinal disorders", "test system": "healthy human", "conditions": "oral, dose not given", "endpoint": "subjects with adverse event", "value": "29.2%"}
